Results gathered from unrelated publications.
Numbered parts are unrelated; each lists some results of a single study. Changes are numbered by the printed parent chain.

Series 1
Target: ABI1, truncated, D143A, DHFR fusion (Arabidopsis thaliana)
Method: DHFR PCA, deep sequencing
Medium: yeast
Notes: methotrexate growth selection, single substitutions
With: (+)-ABA 1.4 µM
Relative to: wild-type fitted maximum
Reading: higher = stronger binding
Starting sequence: PYL1, truncated, DHFR fusion (Arabidopsis thaliana); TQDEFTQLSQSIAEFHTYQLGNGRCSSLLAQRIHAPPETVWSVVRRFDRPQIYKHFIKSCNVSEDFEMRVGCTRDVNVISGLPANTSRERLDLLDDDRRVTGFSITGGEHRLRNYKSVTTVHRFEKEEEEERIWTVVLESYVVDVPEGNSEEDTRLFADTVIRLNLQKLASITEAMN; partner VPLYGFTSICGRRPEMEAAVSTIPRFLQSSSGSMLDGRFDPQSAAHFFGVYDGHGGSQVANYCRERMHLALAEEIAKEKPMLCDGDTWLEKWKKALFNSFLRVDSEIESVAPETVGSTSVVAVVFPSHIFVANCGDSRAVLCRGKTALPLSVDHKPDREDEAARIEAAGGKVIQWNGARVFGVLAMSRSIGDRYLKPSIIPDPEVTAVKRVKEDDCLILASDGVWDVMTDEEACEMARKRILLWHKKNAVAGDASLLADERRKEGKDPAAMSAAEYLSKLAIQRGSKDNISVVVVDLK
For `G102P`, “relative binding score” read 6.12%.
`E131T` — result for “relative binding score”: 73%.
For `L138D`, “relative binding score” read 2.05%.
`T173W` — result for “relative binding score”: -5.82%.
Under “relative binding score”, `F5S` is recorded as 32.3%.
Under “relative binding score”, `I105R` is recorded as -0.638%.
Under “relative binding score”, `S80I` is recorded as -0.331%.
`P83D`: “relative binding score” 3.75%.
`V78S` — result for “relative binding score”: 1.62%.
For `F15H`, “relative binding score” read 46%.
`R32K` — result for “relative binding score”: 58.6%.

Series 2
Target: Prothrombin, mature alpha-thrombin (F2, Homo sapiens, UniProt P00734)
Method: aptamer microarray, sandwich
Molecule type: DNA with 2'F-ANA
Medium: in vitro
Concentration: 200 nM
Notes: whole 15-mer aptamer, many near background
With: Cy3 exosite-II aptamer, 400 nM
Reading: higher = stronger binding
Strand: GGTTGGTGTGGTTGG
`2'F-ANA at 1 2 3 4 5 6 7 12 13 14`: “mean fluorescence intensity” 46.3 a.u.
`2'F-ANA at 3 4 5 6 10 11 12 13`: “mean fluorescence intensity” 54.4 a.u.
For `2'F-ANA at 2 3 5 7 9 10 11`, “mean fluorescence intensity” read 58.9 a.u.
`2'F-ANA at 3 4 7 8 9 11 13 15` — result for “mean fluorescence intensity”: 547 a.u.
`2'F-ANA at 1 2 3 5 6 7 8 9 10 11 12 14 15`: “mean fluorescence intensity” 52.2 a.u.
`2'F-ANA at 2 4 5 6 9 12 13 14 15`: “mean fluorescence intensity” 53.5 a.u.
Under “mean fluorescence intensity”, `2'F-ANA at 1 2 4 6 7 9 11 12 13 15` is recorded as 122 a.u.
For `2'F-ANA at 2 4 7 9 11`, “mean fluorescence intensity” read 292 a.u.
For `2'F-ANA at 3 5 6 7 11`, “mean fluorescence intensity” read 88.7 a.u.
Under “mean fluorescence intensity”, `2'F-ANA at 1 4 7 9 10 12 14` is recorded as 46.4 a.u.
`2'F-ANA at 1 2 3 4 6 7 9 11 13 15`: “mean fluorescence intensity” 84.2 a.u.
`2'F-ANA at 3 5 8 10 11 14 15` — result for “mean fluorescence intensity”: 51.9 a.u.
`2'F-ANA at 1 3 5 7 9` — result for “mean fluorescence intensity”: 67.4 a.u.
`2'F-ANA at 1 4 5 6 7 9 12 14 15`: “mean fluorescence intensity” 61.8 a.u.
`2'F-ANA at 1 2 3 7 8 9 10`: “mean fluorescence intensity” 70.2 a.u.
`2'F-ANA at 1 2 3 6 9 10 11 12 15`: “mean fluorescence intensity” 74.4 a.u.
`2'F-ANA at 3 8 11 12 13 14` — result for “mean fluorescence intensity”: 641 a.u.
`2'F-ANA at 1 2 4 6 9 13` — result for “mean fluorescence intensity”: 86 a.u.
`2'F-ANA at 2 4 5 13 14` — result for “mean fluorescence intensity”: 42.6 a.u.
`2'F-ANA at 1 2 5 6 7 9 11 12 13`: “mean fluorescence intensity” 172 a.u.
`2'F-ANA at 2 3 5 7 13 15`: “mean fluorescence intensity” 75.8 a.u.
`2'F-ANA at 1 2 3 6 7 8 10 12 13 14` — result for “mean fluorescence intensity”: 53.9 a.u.
Under “mean fluorescence intensity”, `2'F-ANA at 2 5 7 8 11 12` is recorded as 160 a.u.
`2'F-ANA at 1 5 6 7 8 12 13` — result for “mean fluorescence intensity”: 114 a.u.
`2'F-ANA at 4 7 9 11 12 14 15`: “mean fluorescence intensity” 106 a.u.

Series 3
Target: Sal-like protein 4, full length isoform A (SALL4, Homo sapiens, UniProt Q9UJQ4, residues 1-1053)
Chain of UniProt Q9UJQ4 (whole entry, looked up): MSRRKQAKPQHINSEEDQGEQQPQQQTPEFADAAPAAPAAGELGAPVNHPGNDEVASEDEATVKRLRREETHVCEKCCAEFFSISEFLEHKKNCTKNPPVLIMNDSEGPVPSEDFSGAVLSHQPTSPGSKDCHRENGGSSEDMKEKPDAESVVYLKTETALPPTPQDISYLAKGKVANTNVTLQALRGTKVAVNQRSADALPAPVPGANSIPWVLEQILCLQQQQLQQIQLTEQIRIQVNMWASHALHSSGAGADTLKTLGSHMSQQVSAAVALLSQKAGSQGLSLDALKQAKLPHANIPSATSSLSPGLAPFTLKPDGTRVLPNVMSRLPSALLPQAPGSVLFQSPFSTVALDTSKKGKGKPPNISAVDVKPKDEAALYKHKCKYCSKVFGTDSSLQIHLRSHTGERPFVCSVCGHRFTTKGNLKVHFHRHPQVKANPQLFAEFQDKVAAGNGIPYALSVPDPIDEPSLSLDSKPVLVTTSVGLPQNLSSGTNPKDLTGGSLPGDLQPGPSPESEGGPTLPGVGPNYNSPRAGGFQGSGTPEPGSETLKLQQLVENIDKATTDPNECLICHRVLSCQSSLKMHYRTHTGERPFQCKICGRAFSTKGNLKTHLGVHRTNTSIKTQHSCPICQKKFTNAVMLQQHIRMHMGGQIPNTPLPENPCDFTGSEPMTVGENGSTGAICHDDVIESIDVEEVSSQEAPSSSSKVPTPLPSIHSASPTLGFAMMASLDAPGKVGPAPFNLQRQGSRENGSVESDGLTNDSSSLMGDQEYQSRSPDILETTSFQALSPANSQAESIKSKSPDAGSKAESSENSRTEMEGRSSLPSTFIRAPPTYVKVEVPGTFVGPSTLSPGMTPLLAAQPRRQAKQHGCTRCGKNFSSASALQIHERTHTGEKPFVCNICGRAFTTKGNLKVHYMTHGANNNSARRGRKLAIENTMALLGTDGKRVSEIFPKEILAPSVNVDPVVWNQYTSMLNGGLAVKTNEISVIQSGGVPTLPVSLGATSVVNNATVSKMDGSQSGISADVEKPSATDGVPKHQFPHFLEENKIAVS
Method: universal PBM
Molecule type: double-stranded DNA, one strand shown
Medium: in vitro
Concentration: 600 nM
Notes: 8-mer, flanks averaged, mean of replicates
Reading: higher = stronger binding
The E-score of `CTGTATCA` is reported as 0.0111.
`GCTTCCAC` has an E-score of -0.184.
`CACTATCA` gave an E-score of 0.0867.
For `TCTCATAA`, the E-score was 0.323.
The E-score of `CATGGCCA` is reported as -0.112.
`GCCAGGGC` has an E-score of -0.403.
`ATGCCCCG` has an E-score of -0.342.
`ATGAGCAC` gave an E-score of -0.0917.
The E-score of `CGCAGCCA` is reported as -0.261.
For `GAACAGAC`, the E-score was -0.033.
`AGTGCTCA` gave an E-score of -0.0684.
`CAAGTAAG` has an E-score of 0.146.
The E-score of `GGGGTACC` is reported as -0.237.
`GACGACGA` gave an E-score of -0.0278.
`ACGAGAAG` has an E-score of -0.0173.
`CTCTACCA` gave an E-score of -0.0283.
`CATAGTCG` has an E-score of 0.0365.
`AAGTGCTC` has an E-score of -0.177.

Series 4
Target: CCNE1, cyclin fold, Cln2 fusion (human)
Method: yeast growth competition, sequencing
Medium: yeast
Notes: weak parent motif
Relative to: not given
Reading: higher = stronger binding
Starting sequence: CABLES2 docking peptide (human); ICAKRSLCAAFSV
Under “normalised enrichment score”, `C2A` is recorded as 0.346.
Under “normalised enrichment score”, `C8A` is recorded as 0.475.
`K4A` — result for “normalised enrichment score”: 0.226.
Under “normalised enrichment score”, `I1A` is recorded as -0.0197.
For `S6A`, “normalised enrichment score” read 0.735.

Series 5
Target: Ras GTPase-activating protein-binding protein 1, full length (G3BP1, Homo sapiens, UniProt Q13283)
Chain of UniProt Q13283 (whole entry, looked up): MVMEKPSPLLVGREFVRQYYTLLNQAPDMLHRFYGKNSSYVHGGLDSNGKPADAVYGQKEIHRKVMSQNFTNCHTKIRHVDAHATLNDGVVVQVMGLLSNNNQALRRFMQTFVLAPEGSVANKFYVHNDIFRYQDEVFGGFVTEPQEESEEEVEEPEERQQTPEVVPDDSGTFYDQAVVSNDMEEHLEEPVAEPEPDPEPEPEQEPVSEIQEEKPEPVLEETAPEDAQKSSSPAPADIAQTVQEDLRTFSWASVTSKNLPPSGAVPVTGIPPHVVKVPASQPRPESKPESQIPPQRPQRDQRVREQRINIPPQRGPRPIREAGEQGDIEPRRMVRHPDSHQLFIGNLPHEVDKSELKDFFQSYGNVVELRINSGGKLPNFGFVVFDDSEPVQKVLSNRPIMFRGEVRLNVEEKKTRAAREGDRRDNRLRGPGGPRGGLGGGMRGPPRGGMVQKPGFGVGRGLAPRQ
Method: RNA Bind-n-Seq
Molecule type: RNA
Medium: in vitro
Concentration: 200 nM
Notes: whole 134-nt RNA, ends assumed
With: 150 mM KCl
Relative to: input library
Reading: higher = stronger binding
Constant ends, left off below: GGGAGUUCUACAGUCCGACGAUC … UGGAAUUCUCGGGUGUCAAGG
With `UGGCCCUGGUGGCAUGCGGGGAGGAAGAGGUGGCCUCAUGGAUCGUGGUGGUCCCGGUGGAAUGUUCACAGGUGGCCGUGGUGGAGACAG` the log2 enrichment was 0.0145.
The log2 enrichment of `CACAGAAAACACGCACCCACACAGACACAGAGGGAAGGGGUUGGGAUGGGGACAGGGUGCACAGCAGGGCGGGGUAGGACCCCAGCCCCU` is reported as 1.74.
`UAACUUUAGAGGAGGAUCUGAUGGAUAUGGCAGUGGACGUGGAUUUGGGGAUGGCUGUAAUGGGUAUGGAGGAGGACCUGGAGGUGGCAA` has a log2 enrichment of 0.347.
For `CACAGACAACACGCACCCACACAGACACAGAGGGAAGGGGUUGGGAUGGGGACAGGGUGCACAGCAGGGCGAAAUAGGACCCCAGCCCCU`, the log2 enrichment was 1.96.
`UCCUCAAGUCCUGUGCUACACAUCGUAUGUACCGAAUCGGAAAGGAGGUGGAAAGUAUUAUGUUACGCCGUUCGGAUCUGCACUUCCAGC` gave a log2 enrichment of -0.745.
With `GUCCUGUGCUACACAUCGUAUGUACCGAAUCAAAUUUUUAAACCCAAAUUUUUUUAAAAAAGUAUUAUGUUACGCCGUUCGGAUCUGCAC` the log2 enrichment was -0.474.
`CUGUGCUACACAUCGUAUGUACCGAAUCGGGGAAAAAAAGGAAAAAAAGGGGAAAAAAAGGGAAAGUAUUAUGUUACGCCGUUCGGAUCU` gave a log2 enrichment of -0.654.
The log2 enrichment of `CCUGUGCUACACAUCGUAUGUACCGAAUCGGGGUUUUUUUGGGGUUUGGGGUUUUUGGGGAAAGUAUUAUGUUACGCCGUUCGGAUCUGC` is reported as 0.164.
`UACCAAUUGGCCUUUAUUGACUGUAUCCAAAGGAUUUUUUGAAGGCACCAUUGCCAGCAAAGGUAAGUACCUAUUUCUCCCAUAGCACUU` has a log2 enrichment of -0.551.

Series 6
Target: CEBPB, bZIP domain (human)
Method: DHFR protein complementation
Medium: yeast
Notes: single substitutions, most at no-binding floor
Relative to: wild-type JUN-FOS pair
Reading: higher = stronger binding
Starting sequence: JUN, bZIP domain (human); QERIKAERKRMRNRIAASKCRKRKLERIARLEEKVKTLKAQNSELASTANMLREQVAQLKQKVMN; partner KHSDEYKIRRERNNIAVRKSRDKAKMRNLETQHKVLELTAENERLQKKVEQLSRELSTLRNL
With `E33C` the binding fitness was -1.45 natural log.
The binding fitness of `T37L` is reported as -1.19 natural log.
`K36S` gave a binding fitness of -1.32 natural log.
For `N42I`, the binding fitness was -1.51 natural log.
The binding fitness of `I28R` is reported as -1.13 natural log.
The binding fitness of `K36V` is reported as -1.37 natural log.
`R53K` gave a binding fitness of -1.17 natural log.
`T37V` gave a binding fitness of -1.24 natural log.
With `I28L` the binding fitness was -1.23 natural log.
`A46W` gave a binding fitness of -1.43 natural log.
`E32S` has a binding fitness of -1.28 natural log.
`I28T` gave a binding fitness of -1.23 natural log.
The binding fitness of `S47T` is reported as -1.36 natural log.
With `S47Q` the binding fitness was -1.23 natural log.
With `A49N` the binding fitness was -1.41 natural log.
For `E44Q`, the binding fitness was -1.26 natural log.
`N42K` has a binding fitness of -1.5 natural log.
`N42G` has a binding fitness of -1.5 natural log.
